Measurements from different studies.
“And” joins repeats or separate records; there may be more than shown. Numbers after ± are the reported error.

COc1cccc(C2CC(c3ccccc3Cl)Nc3ncnn32)c1 (centres unmarked) — maximum inhibition (MEF with TRE-FLAG-LMNB1; LMNB1 level, high-content screening; 150 µM): 3%
CC/C(=N\NC(=O)NCc1cccc(O)c1)c1ccc(O)c(C)c1O — log ratio (SK-OV-3; gene expression, microarray, measured: DHRS3; 10 µM, 24 h; relative to: DMSO): -2.76
CN(C)c1ccccc1CN1CCCN(Cc2ccccc2N(C)C)C1c1ccncc1 — inhibition (Sufu-/- mouse embryonic fibroblasts; qRT-PCR, measured: Ptch1 mRNA; 10 µM; relative to: DMSO): ~50%
O=C(/C=C/C=C/C=C/C1CCCCC1)NC1=C[C@@](O)(/C=C/C=C/C=C/C(=O)NC2=C(O)CCC2=O)[C@@H]2O[C@@H]2C1=O — GI50 (SW1271; cell growth, CellTiter-Glo; 78 h): 9.93 µM
C=CC(=O)N1[C@@H](c2ccc3c(c2)OCO3)c2[nH]c3ccccc3c2C[C@H]1C(=O)NC — neuron degeneration (rat DRG neurons; 1.111 µM, 48 h, together with: vincristine 40 nM): 72.6% and 69.3%
Cn1c(Nc2nc3ccc(C(F)(F)F)cc3s2)nc2cc(C(=O)NCCOCCO)ccc21 — fold change (SH-SY5Y; RNA-seq, measured: ELL2 mRNA; 5 µM, 5 h; relative to: untreated cells): 2.33
Cc1ccc(-c2cc3ccccc3c(N)n2)cc1 — early apoptotic cells (RS4;11; annexin V-FITC/PI flow cytometry, measured: annexin V+ PI-; 2.5 µM, 72 h): 2.7%
CCCCc1nc(Cl)c(CO)n1Cc1ccc(-c2ccccc2-c2nn[nH]n2)cc1 — log2 fold change (human PBMC; RNA-seq, measured: HS3ST2 mRNA; 10 µg/mL, 24 h; relative to: untreated control): -4.29
CCn1cc(-c2cc(Cn3ccoc3=N)cc3c2CCN([C@@H](C)c2cc(OC)ccn2)C3=O)c(C(F)(F)F)n1 — EC50 (SCC-25; cell growth, inhibitor; 120 h): 0.163 µM
CC(=O)Nc1cccc(-n2c(=O)n(C3CC3)c(=O)c3c(Nc4ccc(I)cc4F)n(C)c(=O)c(C)c32)c1 — average fractional effect (LoVo (KRAS G13D); cell viability, resazurin; 6.25 nM, 72 h; relative to: DMSO): 30%
C=CC(=O)N1CCC([C@@H]2CCNc3c(C(N)=O)c(-c4ccc(Oc5ccccc5)cc4)nn32)CC1 — maximum inhibition (TMD8 wild-type; calcium flux, FLIPR; 4 h preincubation, together with: anti-IgM): 84.8%
Cc1cc(Nc2ncc(Cl)c(Nc3ccccc3S(=O)(=O)C(C)C)n2)c(OC(C)C)cc1C1CCNCC1 — Emax (Ba/F3 EML4-ALK v3; cell viability): 99.6%
Cc1cccc(-c2[nH]c(CNc3ccccc3F)nc2-c2ccc3ncnn3c2)n1 — viability (MM1.S; XTT; 3 µM; relative to: untreated): 14%
CCCc1n(Cc2ccc3ccccc3n2)cc[n+]1Cc1ccc2ccccc2c1.[Cl-] — TGI (NSCLC cell lines; lower end of range): ≥ 0.671 µM
Nc1cccc2c1C(=O)N(C1CCC(=O)NC1=O)C2=O (centres unmarked) — viability (bone marrow CD138+ myeloma cells; XTT; 0.2 µM, mean of three patients): 100%
O=C1[C@H]2CCCN2[C@H](c2cccc3c2OCO3)N1c1ccc(Cl)c(Cl)c1 (racemic) — mutant huntingtin-induced cytotoxicity (PC-12, differentiated; 50 µM, 4 days): decreased
CC(C)(O)c1coc(S(=O)(=O)NC(=O)Nc2c3c(cc4c2CCC4)CCC3)c1 — LDH release (THP-1 CASP1 knockout, LPS-primed; inhibitor; 25 µM, 2 h, together with: nigericin 6.25 µM): 16.4% and 20.6% and 17.4%
C=CC(=O)Nc1cccc(Oc2nc(Nc3ccc(N4CCN(C)CC4)cc3)nc3ccoc23)c1 — maximum inhibition (TMD8 wild-type; calcium flux, FLIPR; 4 h preincubation, together with: anti-IgM): 45.5%
Cc1ccc2c(c1)C(=O)[C@]1(O)CCN(c3ccc4nc(C)ccc4c3)C1=N2.Cl — polysomal mRNA level (murine cells; polysome RT-qPCR, measured: Myh10; concentration not given): no effect
C=CC1=C(C)c2cc3[n-]c(cc4nc(cc5[n-]c(cc1n2)c(C)c5C=C)C(C)=C4CCC(=O)O)c(CCC(=O)O)c3C.[Zn+2] — fold change (SH-SY5Y; RNA-seq, measured: SLC12A8 mRNA; 5 µM, 5 h; relative to: untreated cells): 2.23
CC1(C)CCC2(CC1)N[C@@H](C(=O)N[C@@H]1CC[C@@H](C(N)=O)OC1)[C@H](c1ccnc(Cl)c1F)[C@]21C(=O)Nc2cc(Cl)ccc21 — GI50 (well-differentiated liposarcoma cells (MDM2 amplified); cell proliferation, alamarBlue; 72 h): 0.053 µM
CCn1cc(-c2cc(Cn3ccnc3)cc3c2CCN([C@H](c2cc(OC)ccn2)C2CC2)C3=O)c(C(F)(F)F)n1 — EC50 (ARH-77; cell growth, inhibitor; 120 h): > 30 µM
Cn1cc(C(=O)C(=O)NCCc2c[nH]c3ccccc23)c2ccccc21 — cytotoxicity (BxPC-3, MDA-MB-231, PC-3, HeLa, C4-2, HEK293T; MTT; 100 µM): not toxic
COc1cc(/C=C/C(=O)N2CCC=CC2=O)cc(OC)c1OC — mRNA level (MDA-MB-468; qRT-PCR, measured: ANPEP; 30 µM, 6 h; relative to: time zero): 72 ± 8%
c1cnc2c(c1)ccc1cccnc12 — IL-4 mRNA level (HEK293T; 25 µg/mL; relative to: albendazole): decreased
Cc1n(Cc2ccc3ccccc3c2)c2ccccc2[n+]1Cc1ccc2ccccc2c1 — mean growth percentage (NSCLC cell lines; NCI60 one-dose screen; 10 µM): -26.8%
Nc1ncnc2c1ncn2[C@@H]1O[C@H](CO)[C@@H](O)[C@H]1O — log2 fold change (activated human T cells; measured: AMP; 30 µM; relative to: DMSO): 0.223 and 0.4 and 0.5
CCc1cnc(N2CCC(c3nc(COc4ccc(-n5cnnn5)cc4)cs3)CC2)nc1 — normalized enrichment score (HEK-293T; RNA-seq GSEA, measured: HALLMARK_MYOGENESIS; concentration not given; direction not given): -0.963
C=CCn1c(=O)c2cnc(Nc3ccc(N4CCN(C)CC4)cc3)nc2n1-c1ccc2c(n1)[C@@](O)(CC)CC2 — γH2AX-positive cells (NCI-H1048; flow cytometry; 1 µM, 24 h): 18.7%
Cc1cc(Nc2ncc(Cl)c(Nc3ccccc3S(=O)(=O)C(C)C)n2)c(OC(C)C)cc1C1CCNCC1 — log2 fold change (CLB-BAR; phosphoproteomics LC-MS/MS, measured: BCR phosphorylation; 200 nM, 60 min; relative to: untreated): -1.81
COc1cnc2cccc(N3CCc4c(cc(Cn5ccnc5C)cc4-c4cn(C)nc4C(F)(F)F)C3=O)c2c1 — EC50 (SCC-25; cell growth, inhibitor; 120 h): 14.8 µM
CCc1n(Cc2ccc3ccccc3n2)cc[n+]1Cc1ccc2ccccc2n1 — growth (NSCLC cell lines; NCI60 one-dose; 10 µM, average over cell lines): 25 to 31.8%
CC(C)NCC(O)c1ccc(O)c(O)c1 (centres unmarked) — sarcomere length (mouse ventricular cardiomyocytes; dose not given, 0.091 s): 1.75 µm
CCOc1cc([C@@H](CS(C)(=O)=O)N2C(=O)c3cccc(NC(C)=O)c3C2=O)ccc1OC — cAMP level difference (PBMC; MSD; 0.0001 µM, unit not given, together with: PGE2; relative to: DMSO): -0.913
COc1ccc(-n2nc(C(C)=O)s/c2=N\N=C(/C)c2ccc(NC(=O)c3ccc(Cl)cc3)cc2)cc1 — toxicity (HepG2; 0.156 µM): 75.1%
O=C(O)COCC(=O)O — IC50 (hepatocytes, iPSC-derived, line W3; cell viability, RealTime-Glo MT; 72 h, differentiation day 23): 19000 µM
Cn1cc(-c2ccc(-c3cncc(Cl)c3N3CCC4(CCNC4=O)CC3)cc2)cn1 — log2 fold change (COLO 205; gene expression, microarray, measured: POU2AF1 mRNA; concentration not given, 2 h; relative to: untreated cells): -2.86
COCCc1n(Cc2ccc3ccccc3c2)c2ccccc2[n+]1Cc1ccc2ccccc2c1 — mean growth percentage (NSCLC cell lines; NCI60 one-dose screen; 10 µM): -23.2%
CCCCN1C[C@H](O)[C@@H](O)[C@@H](O)[C@H]1CO — IC50 (sample B patient fibroblasts; GlcCer level lowering, LC-MS/MS, measured: GlcCer d18:1/16:0; 216 h): 16 µM
O=C(Nc1c(Cl)cncc1Cl)c1ccc(OC(F)F)c(OCC2CC2)c1 — cAMP level difference (PBMC; MSD; 10 µM, unit not given, together with: PGE2; relative to: DMSO): -0.51
CC(C)(c1ccc(O)cc1)c1ccc(O)cc1 — S phase cells (HepG2 spheroids; Hoechst flow cytometry; 10 µM, 96 h): 12.2 ± 3.68%
Clc1nc(NCc2ccco2)c2[nH]cnc2n1 — ΔPSI (iPSC-derived cardiomyocytes; RNA-seq, measured: ADGRD1 chr12 exon ending 130982063; unit not given; relative to: DMSO minus compound): -0.209
CC(=O)Nc1cccc(C(=O)Nc2ccc(Nc3nccc(-c4cccnc4)n3)c(C)c2)c1 — reporter activity (AP1 reporter HEK293; AP1 reporter gene, inhibitor; 10 µM, 6 h, compound kept in medium, unit not given, together with: PMA; relative to: PMA alone): 0.582
O=C(C[C@@H](C(F)F)n1ccc(F)n1)N1CCC(O)(Cn2cnc3c(cnn3-c3ccc(F)cc3)c2=O)CC1 — G2/M phase cells (CHP-212 parental; PI flow cytometry; 1 µM, 24 h): 9.49%
